# Published values collected from several papers.
# A part holds a random share of what one study measured. “And” joins repeats or separate records; there may be more than shown.

# Set 1
# Method: PRP chromatography
# Setting: linear fit, 1 mL
SMILES,"logD 1,9-decadiene/water [log units]"
CC(C)C[C@@H]1NC(=O)[C@H](C)NC(=O)[C@H](CCC(=O)N2CCCC2)NC(=O)[C@H](C)NC(=O)[C@H](CC(C)C)NC(=O)[C@H](CC(C)C)NC(=O)[C@@H](C(C)C)NC1=O,-2.32
CC(C)C[C@@H]1NC(=O)[C@H](CC(C)C)NC(=O)[C@@H](CC(C)C)NC(=O)[C@H](CC(C)C)NC(=O)[C@H](C(C)C)NC(=O)[C@H](Cc2cscn2)NC(=O)[C@H](C)NC1=O,-0.172
CC(C)C[C@@H]1NC(=O)[C@H](C)NC(=O)[C@@H](CC(C)C)NC(=O)[C@H](C)NC(=O)[C@@H](Cc2cscn2)NC(=O)[C@H](CC(C)C)NC(=O)[C@@H](CC(C)C)NC1=O,-0.346
CC(C)C[C@@H]1NC(=O)[C@H](C)NC(=O)[C@H](CC(C)C)NC(=O)[C@H](C(C)C)NC(=O)[C@H](CC(C)C)NC(=O)[C@@H](CC(C)C)NC(=O)[C@H](CC(C)C)NC1=O,0.577
CC(C)C[C@@H]1NC(=O)[C@H](C)NC(=O)[C@@H](CC(C)C)NC(=O)[C@@H](CC(C)C)NC(=O)[C@H](C(C)C)NC(=O)[C@H](CC(C)C)NC(=O)[C@@H](CC(C)C)NC1=O,1.14
CC(C)C[C@@H]1NC(=O)[C@@H](C)NC(=O)[C@H](CCC(=O)N2CCCC2)NC(=O)[C@H](C)NC(=O)[C@H](C(C)C)NC(=O)[C@H](CC(C)C)NC(=O)[C@@H](CC(C)C)NC1=O,-1.12

# Set 2
# SMILES: C[C@@H]1CN(c2ccc(-c3cc(C(=O)NCCOCCOCCOCCOCCOCCOCCOCCOCCOCCNC(=O)/C=C/c4[nH]cc(C(=O)N[C@@H](CC(N)=O)c5ccc(F)c(Cl)c5)c4-c4ccc(Cl)cc4F)ccc3F)cc2NC(=O)c2c[nH]c(=O)cc2C(F)(F)F)C[C@H](C)N1C
# Action: degrader
# Time: 24 h
# WDR5: WD repeat-containing protein 5 (WDR5, Homo sapiens, UniProt P61964)
target,assay,conditions,how to read,remaining protein level
WDR5,"Jess capillary immunoassay, item: WDR5 over vinculin",4270 nM,relative to: DMSO,49% and 52.5% and 52.1%
"WDR5/DCAF1 (Homo sapiens, UniProt P61964+Q9Y4B6)",HiBiT luminescence,5.15 nM,,101% and 82.8% and 113% and 92.8%
WDR5,"Jess capillary immunoassay, item: WDR5 over vinculin",331 nM,relative to: DMSO,59.6% and 54.1% and 63.6%
WDR5,"Jess capillary immunoassay, item: WDR5 over vinculin",11 nM,relative to: DMSO,87.5% and 89.5% and 91.9%

# Set 3
# SMILES: Oc1ccc(Nc2nc(-c3ccc(Cl)cc3)cs2)cc1
# Effect on: enzyme activity
# Action: inhibitor
# Tested at: 0.5 µM
# Relative to: control
target,remaining activity [%]
"WEE1 (Homo sapiens, UniProt P30291)",93.2
"MST1R (Homo sapiens, UniProt Q04912)",92.5
"MAP3K14 (Homo sapiens, UniProt Q99558)",102
"TEK (Homo sapiens, UniProt Q02763)",104
"MAPK3 (Homo sapiens, UniProt P27361)",104
"TBK1 (Homo sapiens, UniProt Q9UHD2)",95.2
"MERTK (Homo sapiens, UniProt Q12866)",97.1
"MAPKAPK2 (Homo sapiens, UniProt P49137)",100
"ULK3 (Homo sapiens, UniProt Q6PHR2)",94.4
"NEK6 (Homo sapiens, UniProt Q9HC98)",95.2
"GSK3B (Homo sapiens, UniProt P49841)",110
"FRK (Homo sapiens, UniProt P42685)",106
"RPS6KA2 (Homo sapiens, UniProt Q15349)",101
"CSNK1G3 (Homo sapiens, UniProt Q9Y6M4)",103

# Set 4
# Structure (SMILES): CC1=C(C#N)[C@@H](c2ccc3[nH]nc(C)c3c2)C(C#N)=C(c2ccc(Cl)cc2)N1
# Effect on: cell-free assay
# Method: competition with immobilised ligand
# Tested at: 1 µM
target,remaining binding
"LIM domain kinase 1 (LIMK1, Homo sapiens, UniProt P53667)",100%
"CDK9 (Homo sapiens, UniProt P50750)",96.9%
"EGFR (Homo sapiens, UniProt P00533, G719C)",100%
"GSK3A (Homo sapiens, UniProt P49840)",100%
"CDK5 (Homo sapiens, UniProt Q00535)",100%
